Assay results from different studies.
Chain of UniProt P00519 (whole entry, unmodified, looked up): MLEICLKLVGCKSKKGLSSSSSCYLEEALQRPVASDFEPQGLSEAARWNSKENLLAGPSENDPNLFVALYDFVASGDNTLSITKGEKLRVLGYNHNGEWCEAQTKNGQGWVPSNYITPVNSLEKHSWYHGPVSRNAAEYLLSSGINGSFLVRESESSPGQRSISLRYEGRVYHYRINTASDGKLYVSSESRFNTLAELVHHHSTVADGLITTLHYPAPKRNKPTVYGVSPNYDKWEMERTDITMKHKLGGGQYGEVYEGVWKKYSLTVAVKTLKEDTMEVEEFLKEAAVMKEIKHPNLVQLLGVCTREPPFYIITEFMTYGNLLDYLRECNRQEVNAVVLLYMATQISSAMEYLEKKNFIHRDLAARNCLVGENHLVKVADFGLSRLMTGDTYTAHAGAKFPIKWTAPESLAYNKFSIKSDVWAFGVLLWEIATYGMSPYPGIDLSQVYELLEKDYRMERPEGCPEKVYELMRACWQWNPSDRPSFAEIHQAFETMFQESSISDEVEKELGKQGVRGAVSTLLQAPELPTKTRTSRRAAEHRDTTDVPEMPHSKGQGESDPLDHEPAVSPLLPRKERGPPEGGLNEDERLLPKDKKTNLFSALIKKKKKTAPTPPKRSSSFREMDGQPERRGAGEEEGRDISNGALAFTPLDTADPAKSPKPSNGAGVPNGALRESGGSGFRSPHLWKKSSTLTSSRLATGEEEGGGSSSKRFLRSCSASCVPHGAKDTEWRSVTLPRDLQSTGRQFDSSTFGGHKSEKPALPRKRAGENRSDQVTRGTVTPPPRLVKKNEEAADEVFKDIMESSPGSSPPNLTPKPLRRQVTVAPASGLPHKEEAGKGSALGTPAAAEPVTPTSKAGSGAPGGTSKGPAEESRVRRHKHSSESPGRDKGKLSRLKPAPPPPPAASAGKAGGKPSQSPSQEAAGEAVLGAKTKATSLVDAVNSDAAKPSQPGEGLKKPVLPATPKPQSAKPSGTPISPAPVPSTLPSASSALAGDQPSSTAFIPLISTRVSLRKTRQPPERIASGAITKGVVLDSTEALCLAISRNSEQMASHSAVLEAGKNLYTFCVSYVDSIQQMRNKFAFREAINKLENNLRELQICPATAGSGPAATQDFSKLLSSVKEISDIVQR
Chain of UniProt P16591 (whole entry, looked up): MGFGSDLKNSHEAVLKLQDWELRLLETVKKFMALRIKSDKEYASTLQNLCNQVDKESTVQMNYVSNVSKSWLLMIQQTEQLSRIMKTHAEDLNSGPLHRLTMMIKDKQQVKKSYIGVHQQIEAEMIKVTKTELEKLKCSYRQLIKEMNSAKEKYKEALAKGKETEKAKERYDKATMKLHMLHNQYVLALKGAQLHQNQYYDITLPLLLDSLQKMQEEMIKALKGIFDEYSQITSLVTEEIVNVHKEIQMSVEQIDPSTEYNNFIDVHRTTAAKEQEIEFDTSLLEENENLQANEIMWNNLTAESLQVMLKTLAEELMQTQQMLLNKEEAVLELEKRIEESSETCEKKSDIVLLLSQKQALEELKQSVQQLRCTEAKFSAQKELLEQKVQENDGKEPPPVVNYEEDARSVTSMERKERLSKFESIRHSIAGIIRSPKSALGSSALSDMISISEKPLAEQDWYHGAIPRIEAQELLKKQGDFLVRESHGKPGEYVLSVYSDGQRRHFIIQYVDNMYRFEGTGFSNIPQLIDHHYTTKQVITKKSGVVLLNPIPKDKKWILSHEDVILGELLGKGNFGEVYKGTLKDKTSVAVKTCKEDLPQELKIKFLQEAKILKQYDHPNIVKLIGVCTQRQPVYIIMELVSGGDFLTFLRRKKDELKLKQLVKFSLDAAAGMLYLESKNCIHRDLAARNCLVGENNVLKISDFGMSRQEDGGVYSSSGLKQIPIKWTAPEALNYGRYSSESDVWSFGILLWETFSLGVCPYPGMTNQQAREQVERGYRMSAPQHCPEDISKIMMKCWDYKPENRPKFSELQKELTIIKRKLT
Chain of UniProt P45983 (whole entry, looked up): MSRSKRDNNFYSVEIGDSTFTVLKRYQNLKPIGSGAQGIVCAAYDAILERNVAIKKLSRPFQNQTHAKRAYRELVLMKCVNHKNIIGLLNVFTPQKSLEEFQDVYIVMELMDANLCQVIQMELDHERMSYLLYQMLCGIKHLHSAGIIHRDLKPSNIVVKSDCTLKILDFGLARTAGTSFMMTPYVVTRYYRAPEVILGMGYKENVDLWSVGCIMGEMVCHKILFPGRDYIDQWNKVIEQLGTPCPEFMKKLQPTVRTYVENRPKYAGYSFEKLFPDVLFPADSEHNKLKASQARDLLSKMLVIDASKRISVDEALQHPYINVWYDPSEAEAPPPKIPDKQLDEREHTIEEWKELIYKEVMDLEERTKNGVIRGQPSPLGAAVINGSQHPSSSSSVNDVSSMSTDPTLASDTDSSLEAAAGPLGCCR

SMILES	tested on	test	system	conditions	endpoint	value
COC(=O)COc1c(Cc2cc(C(C)(C)CC(C)(C)C)cc(-n3nc4ccccc4n3)c2OCC(=O)OC)cc(C(C)(C)CC(C)(C)C)cc1-n1nc2ccccc2n1	HeLa	cell growth or viability, MTT		10 µM, 48 h	viability	23.8%
CNC(=O)c1cc(Oc2ccc(NC(=O)Nc3ccc(Cl)c(C(F)(F)F)c3)cc2)ccn1	WISH	cell growth or viability, MTT		25 µM, 24 h	viability	34.8%
Cc1ccc(S(=O)(=O)NNc2ccc([N+](=O)[O-])cc2[N+](=O)[O-])cc1	HEK293	cell growth or viability, MTT		125 µg/mL	viability	79.6%
COc1cccc(OC)c1-c1cc(C(=O)NC2(C(=O)O)C3CC4CC(C3)CC2C4)nn1-c1ccc(C(=O)N(C)CCCN(C)CCCN(C)C(=O)CN2CCN(CC(=O)[O-])CCN(CC(=O)[O-])CCN(CC(=O)[O-])CC2)cc1C(C)C.[177Lu+3] (stereo not drawn)	HT-29 tumour model		host not given, blood	24 h, tumour-bearing	tracer uptake	0.05 %ID/g
Cc1sc2c(=O)n(O)c(=O)[nH]c2c1C	HFF	cell growth or viability, MTS		10 µM, 7 days	viability	115%
O=C1CC[C@H](N2Cc3cc(N4CCN(CC5CCN(c6ccc([C@@H]7c8ccc(O)cc8CC[C@@H]7c7ccccc7)cc6)CC5)CC4)ccc3C2=O)C(=O)N1			male Sprague-Dawley rat, plasma	oral, 20 mg/kg, fed	AUC(0-inf)	9790 ng·h/mL
COc1cccc(NC(=O)Nc2ccc(Oc3nc4ccccc4n4cnnc34)cc2)c1	WISH	cell growth or viability, MTT		12.5 µM, 24 h	viability	98.3%
O=c1[nH]c2c3c(sc2c(=O)n1O)CCCC3	HFF	cell growth or viability, MTS		10 µM, 7 days	viability	128%
CC1(F)CN(C(=O)Cn2c(=O)c(C(=O)NCc3ccc(Cl)cc3)cc3nc(N4CCN(CC(=O)O)C4=O)cnc32)C1	MRC5	cell growth or viability, CCK-8		40 µM	viability	99%
COc1cc(/C=C/C(=O)C(=Cc2ccc(O)cc2)C(=O)/C=C/c2ccc(O)c(OC)c2)ccc1O	WRL68	cell growth or viability, MTT		12.4 µg/mL, 48 h	viability	89.4%
CC1(F)CN(C(=O)Cn2c(=O)c(C(=O)NCc3ccc(Cl)cc3)cc3nccnc32)C1	MRC5	cell growth or viability, CCK-8		40 µM	viability	100%
Cc1ccc(S(=O)(=O)[N](Nc2ccc([N+](=O)[O-])cc2[N+](=O)[O-])[Sn]([Cl])[Cl])cc1	HEK293	cell growth or viability, MTT		31.25 µg/mL	viability	86%
C=CC(=O)N1CCC(COCC(=O)N2CCN(c3nc(-c4cnc(N)nc4C(F)F)nc(N4CCOC[C@@H]4C)n3)CC2)CC1	FER (Homo sapiens, UniProt P16591)	binding, competition with immobilised ligand		1 µM	remaining binding	96%
CCNc1nc(Nc2ccc(F)c(Cl)c2)c2ccccc2n1	Vero	cell growth or viability, MTT		1000 µg/mL	viability	2.63%
CCCCC(=O)Nc1ccc(-c2ccc3ncn(CCC)c(=O)c3c2)cn1	Tyrosine-protein kinase ABL1, phosphorylated (ABL1, Homo sapiens, UniProt P00519, M351T)	binding, competition with immobilised ligand		0.5 µM	remaining binding	97%
CNc1ncc2c(/C=C/C(=O)N3CCC(OC)CC3)nn(Cc3cccc(C(F)(F)F)c3)c2n1	PRKDC (Homo sapiens, UniProt P78527)	enzyme activity, inhibitor, radiometric		1 µM	remaining activity	98%
O=c1nc(N2CCN(CC3CCCCC3)CC2)sc2c([N+](=O)[O-])cc(C(F)(F)F)cc12			CD-1 mouse, plasma	oral, 100 mg/kg, 2 h	concentration	3000 ng/mL
COc1cc(/C=C2\CC/C(=C\c3ccc(O)c(OC)c3)C2=O)ccc1O	WRL68	cell growth or viability, MTT		25 µg/mL, 48 h	viability	13.8%
Nc1ccn([C@@H]2O[C@H](CO)[C@@H](O)C2(F)F)c(=O)n1	MDA-MB-231	cell growth or viability, MTT		10 µg/mL, 48 h	viability	34.4%
COc1ccc(NC(=O)Nc2cccc(-c3cn(Cc4ccc(C)cc4)nn3)c2)cc1	L02	cell growth or viability, CCK-8		50 µM, 72 h	viability	121%
COc1cccc2c1C(=O)c1c(O)c3c(c(O)c1C2=O)C[C@@](O)(C(=O)CO)C[C@@H]3O[C@H]1C[C@H](N)[C@H](O)[C@H](C)O1	SW480	cell growth or viability, MTT		12.5 µg/mL	viability	64.6%
O=C1c2ccccc2C(c2ccccc2)C(=O)N1O (stereo not drawn)	HFF	cell growth or viability, MTS		10 µM, 7 days	viability	98%
COc1cccc(-c2n[nH]c(SCc3ccccn3)n2)c1OC			female Sprague-Dawley rat, plasma	intravenous, 1 mg/kg, 1 h, single dose	concentration	112 ng/mL
COc1cc(-c2cncc3c2CN(C)Cc2cc(N4CCNCC4)ccc2-3)cc(OC)c1OC	MAPK8 (Homo sapiens, UniProt P45983)	enzyme activity, inhibitor		1 µM	remaining activity	100%

Some of these lines once more:
SMILES	tested on	test	system	conditions	endpoint	value
Cc1sc2c(=O)n(O)c(=O)[nH]c2c1C	HFF	cell growth or viability, MTS		10 µM, 7 days	viability	115%
Cc1ccc(S(=O)(=O)[N](Nc2ccc([N+](=O)[O-])cc2[N+](=O)[O-])[Sn]([Cl])[Cl])cc1	HEK293	cell growth or viability, MTT		31.25 µg/mL	viability	86%
